Assay results collected from several papers.
A part holds a random share of what one study measured. Substitutions count along the parent as printed.

Study 1
Target: ABI1, truncated, D143A, DHFR fusion (Arabidopsis thaliana)
Technique: DHFR PCA, deep sequencing
Matrix: yeast
Notes: methotrexate growth selection, single substitutions
With: (+)-ABA 4.8 µM
Relative to: wild-type fitted maximum
Direction: higher = stronger binding
Starting sequence: PYL1, truncated, DHFR fusion (Arabidopsis thaliana); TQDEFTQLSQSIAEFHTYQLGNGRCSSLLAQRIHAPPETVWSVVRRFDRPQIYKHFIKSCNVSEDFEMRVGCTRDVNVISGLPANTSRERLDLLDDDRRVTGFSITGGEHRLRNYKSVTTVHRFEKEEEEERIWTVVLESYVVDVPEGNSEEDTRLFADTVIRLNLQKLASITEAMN; partner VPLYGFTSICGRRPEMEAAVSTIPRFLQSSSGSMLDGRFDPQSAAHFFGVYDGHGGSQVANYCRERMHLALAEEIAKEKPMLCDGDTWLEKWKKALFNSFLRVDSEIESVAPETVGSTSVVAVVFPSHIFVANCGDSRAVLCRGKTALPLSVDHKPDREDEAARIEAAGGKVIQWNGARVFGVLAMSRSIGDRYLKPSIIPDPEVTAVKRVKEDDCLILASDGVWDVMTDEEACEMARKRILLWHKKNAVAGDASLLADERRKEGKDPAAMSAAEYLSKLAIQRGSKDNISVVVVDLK
Change	relative binding score [%]
D159A	2.67
T6M	73.5
L8E	1.19
V43E	-4.9
R99Y	92.4
N22K	78.3
A13M	64.5
T135D	-0.936
G81R	1.68
E64D	77.1
Y141R	-1.07
N77L	65.4
N61D	74.4
A158D	-5.9
T1A	72.1
D144A	-5.36
V137R	-6.05
K116S	72.4
V44K	-2.14
D153P	-5.62
D65M	45.2
A170Q	67.7
T101E	-13.7
K116L	-11
P146H	-1.46

Study 2
Target: CCNB2, cyclin fold, Cln2 fusion (human)
Technique: yeast growth competition, sequencing
Matrix: yeast
Notes: weak parent motif
Relative to: not given
Direction: higher = stronger binding
Starting sequence: DBF4 docking peptide (human); DDIVSKLVFDFVE
Change	normalised enrichment score
DDIVSKAVFDFVE [L7A]	-0.792
DDIVSKLAFDFVE [V8A]	-0.423
DDIASKLVFDFVE [V4A]	0.0655
DDIVSKLVADFVE [F9A]	-0.212
DDIVSKLVFDFAE [V12A]	-0.231
DDIVAKLVFDFVE [S5A]	0.724

Study 3
Target: Prothrombin, mature alpha-thrombin (F2, Homo sapiens, UniProt P00734)
Technique: aptamer microarray, sandwich
Form: DNA with 2'F-ANA
Matrix: in vitro
Tested at: 200 nM
Notes: whole 15-mer aptamer, many near background
With: Cy3 exosite-II aptamer, 400 nM
Direction: higher = stronger binding
Strand: GGTTGGTGTGGTTGG
Modification	mean fluorescence intensity [a.u.]
2'F-ANA at 2 6 7 8 9 11 12 15	479
2'F-ANA at 2 3 6 7 9 14 15	323
2'F-ANA at 1 4 6 8 9 10 13 14	54.1
2'F-ANA at 1 2 3 4 7 8 9 10 11 13	57.5
2'F-ANA at 1 5 6 8 10 12	51.3
2'F-ANA at 1 2 3 5 6 9 10 11 12 13 14	52
2'F-ANA at 2 4 5 6 7 9 10 12	51.6
2'F-ANA at 3 6 7 8 10 14	368
2'F-ANA at 3 6 7 11 13	886
2'F-ANA at 2 3 6 7 9 10 15	342
2'F-ANA at 2 3 5 6 7 8 11 13 14 15	54.4
2'F-ANA at 2 7 8 9 10 14 15	87.7
2'F-ANA at 3 8 9 10 11 12	630
2'F-ANA at 2 6 12 14 15	151
2'F-ANA at 1 2 3 4 5 7 8 9 10 11 14	59.4
2'F-ANA at 2 4 5 6 7 10 12 13 15	55.2
2'F-ANA at 2 3 4 6 7 8 12 15	894

Study 4
Target: Histone acetyltransferase KAT6A, winged helix 2, GST fusion (KAT6A, Homo sapiens, UniProt Q92794, residues 85-181)
Technique: protein binding microarray
Form: double-stranded DNA, one strand shown
Matrix: in vitro
Tested at: not given
Notes: 8-mer, flanks averaged, mean of 2 arrays, mostly near background
Relative to: not given
Direction: higher = stronger binding
Target sequence (chain): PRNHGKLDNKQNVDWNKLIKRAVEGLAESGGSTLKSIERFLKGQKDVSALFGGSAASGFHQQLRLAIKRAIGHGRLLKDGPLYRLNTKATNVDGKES
Strand	E-score
ACTATCTC	-0.147
AGTCCAAC	-0.067
CCGGGGCA	0.13
AGCCACAG	-0.141
ATTCGGGG	0.11
GTGGTCCA	0.0548
GCGGCGTA	0.00696
TCGAGACA	0.0459
GTTGCTTA	0.113
ATGCTTTG	0.0179
AACGCCAC	-0.0548
CCCGAGGG	0.204
CCCTTTCC	0.0652
GAAAGATC	-0.104
TGACATCA	-0.0794
AACATTTC	-0.0888
AAGAGCCA	0.057
CGATTCCG	-0.0869

Study 5
Target: RING finger protein unkempt homolog, zinc fingers 1-6, GST-SBP tag (UNK, Homo sapiens, UniProt Q9C0B0, residues 30-357)
Technique: RNA Bind-n-Seq
Form: RNA
Matrix: in vitro
Tested at: not given
Notes: RNA with constant flanks, human and mouse sites, ends assumed
Relative to: input RNA pool
Direction: higher = stronger binding
Target sequence (chain): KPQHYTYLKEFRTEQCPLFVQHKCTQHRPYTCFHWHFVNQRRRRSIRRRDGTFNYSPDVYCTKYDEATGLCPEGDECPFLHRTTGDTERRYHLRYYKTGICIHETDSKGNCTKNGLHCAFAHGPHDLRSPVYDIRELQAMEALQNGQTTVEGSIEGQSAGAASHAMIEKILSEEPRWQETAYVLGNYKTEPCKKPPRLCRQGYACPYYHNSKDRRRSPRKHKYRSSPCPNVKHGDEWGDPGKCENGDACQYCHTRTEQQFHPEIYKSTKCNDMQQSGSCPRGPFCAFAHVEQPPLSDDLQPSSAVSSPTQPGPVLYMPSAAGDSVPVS
Strand	bound/input enrichment [ratio]
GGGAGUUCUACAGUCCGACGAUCCACAUUGGUGCUUUUCUUGUCUCUCUGCCUUCUGGAGAAAAGAUAACUUUUCUUGAUACUCCUGGACAUGCUGCCUUCUCAGCAAUGAGAGCCAGAGGAGCUCAGGUCACCGACAUUGUUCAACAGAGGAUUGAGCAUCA	0.121
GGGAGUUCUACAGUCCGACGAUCGCCUCAGCUUCCACCCCCAGCACUACGUAUGGAAAAUUAGGGAGAUUAGAGAAACCACCUAAUUGCUGGGUCAGCCAGUGGAGGACAGCUGAGCAUCCAAGAGCCAGGCCCUGACCACCGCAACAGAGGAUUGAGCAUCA	0.293
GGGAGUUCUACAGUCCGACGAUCUCUGACAUUUCUACUCUUGGACACCUGGUAAUAACCACUCAGGGAGGAUAUGUAAAAAUACUAGAUCUUUCAAACUUUGAAAUUUUGGCCAAAGUGGAGCCUCCCAAAAAGGAGGGCACUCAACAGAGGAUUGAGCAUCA	0.36
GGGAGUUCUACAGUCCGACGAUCUGCCCCCAGGUUGCGUGUACAGGCGAGUCCCUAUGCCCUGUCUACCUGUCUUGUUCUUACUCACUUUCUCCCUUCAUGCCACUGCCCCACCUCUCGCUUCCUAAGUCUAACCUCUGCGCACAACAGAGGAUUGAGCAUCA	0.447
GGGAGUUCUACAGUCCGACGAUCGACUUGUGCUGCCUGUGUGGAUCUAUGUCUUGGAGAGAAGCUGUGUGCAUCAGCUGCAAAUAACAUUUUAAAAAUCAACAUGUACUGUGCUUAUCCUGUCCCUGGAAUGGGCAACAAUUCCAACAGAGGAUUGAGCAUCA	0.185
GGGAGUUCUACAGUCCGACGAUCCUAACGAACUUUACACUCCUGAUGCCAGCAGUAUCCGUUGGAAAUGUUGGCCAGCUUGCAAUAGAUCUGAUUAUUUCUACACUGAACAUGUGUAAGAUUGGUUAUUUCUAUACUGAUUGCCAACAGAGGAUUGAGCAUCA	0.0631
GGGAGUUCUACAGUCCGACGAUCUGGAUUAUAUGGGAAUGGCUUCAAGUCGGGUUCUAUGCGUCUGGGUAAAGACGCAAUCGUUUUUACCAAAAAUGGAGAAAGCAUGAGCGUGGGCCUUUUGUCUCAGACCUACUUGGAAGUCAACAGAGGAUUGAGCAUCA	0.334
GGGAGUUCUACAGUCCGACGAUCGGCCCUGUGAAAGCUGAGACUGAGGAAGCAGCCCAUUCAGUUUCACAAGAGAUGAGUGUGAAUUCUCCCACAGCCCAGGAGAGCCAGAGGAAUGCAGAAACCCCAGCGGAGACUCCUACUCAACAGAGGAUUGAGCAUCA	0.116
